Measurements pooled from the literature.
Parts stem from different laboratories: compare values within a part only. Values joined by “and” are separate records of one study, mostly repeats; a detail may differ.
UniProt Q12852, sequence (whole entry, looked up): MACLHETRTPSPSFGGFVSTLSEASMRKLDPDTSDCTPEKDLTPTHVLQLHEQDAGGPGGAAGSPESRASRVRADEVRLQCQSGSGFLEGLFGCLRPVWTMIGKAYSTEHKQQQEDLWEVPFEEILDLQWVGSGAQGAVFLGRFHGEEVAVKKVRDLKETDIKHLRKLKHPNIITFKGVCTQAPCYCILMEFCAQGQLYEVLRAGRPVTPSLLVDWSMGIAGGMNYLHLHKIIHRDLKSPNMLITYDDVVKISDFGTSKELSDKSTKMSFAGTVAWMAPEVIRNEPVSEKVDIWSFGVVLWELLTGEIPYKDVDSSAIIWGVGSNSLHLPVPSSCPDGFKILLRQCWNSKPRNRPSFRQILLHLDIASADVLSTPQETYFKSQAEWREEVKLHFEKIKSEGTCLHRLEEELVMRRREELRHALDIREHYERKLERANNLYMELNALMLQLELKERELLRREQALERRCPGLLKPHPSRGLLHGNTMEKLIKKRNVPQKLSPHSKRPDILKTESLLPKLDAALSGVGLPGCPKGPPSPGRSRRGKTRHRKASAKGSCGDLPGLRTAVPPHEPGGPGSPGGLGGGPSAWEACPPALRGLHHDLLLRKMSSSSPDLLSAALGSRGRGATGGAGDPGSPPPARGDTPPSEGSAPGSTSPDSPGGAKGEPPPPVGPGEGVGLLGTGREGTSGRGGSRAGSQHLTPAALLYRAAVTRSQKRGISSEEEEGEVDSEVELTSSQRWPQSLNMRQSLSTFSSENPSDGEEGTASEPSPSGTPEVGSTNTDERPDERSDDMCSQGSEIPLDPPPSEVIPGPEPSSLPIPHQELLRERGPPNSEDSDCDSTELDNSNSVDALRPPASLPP
UniProt Q92918, sequence (whole entry, looked up): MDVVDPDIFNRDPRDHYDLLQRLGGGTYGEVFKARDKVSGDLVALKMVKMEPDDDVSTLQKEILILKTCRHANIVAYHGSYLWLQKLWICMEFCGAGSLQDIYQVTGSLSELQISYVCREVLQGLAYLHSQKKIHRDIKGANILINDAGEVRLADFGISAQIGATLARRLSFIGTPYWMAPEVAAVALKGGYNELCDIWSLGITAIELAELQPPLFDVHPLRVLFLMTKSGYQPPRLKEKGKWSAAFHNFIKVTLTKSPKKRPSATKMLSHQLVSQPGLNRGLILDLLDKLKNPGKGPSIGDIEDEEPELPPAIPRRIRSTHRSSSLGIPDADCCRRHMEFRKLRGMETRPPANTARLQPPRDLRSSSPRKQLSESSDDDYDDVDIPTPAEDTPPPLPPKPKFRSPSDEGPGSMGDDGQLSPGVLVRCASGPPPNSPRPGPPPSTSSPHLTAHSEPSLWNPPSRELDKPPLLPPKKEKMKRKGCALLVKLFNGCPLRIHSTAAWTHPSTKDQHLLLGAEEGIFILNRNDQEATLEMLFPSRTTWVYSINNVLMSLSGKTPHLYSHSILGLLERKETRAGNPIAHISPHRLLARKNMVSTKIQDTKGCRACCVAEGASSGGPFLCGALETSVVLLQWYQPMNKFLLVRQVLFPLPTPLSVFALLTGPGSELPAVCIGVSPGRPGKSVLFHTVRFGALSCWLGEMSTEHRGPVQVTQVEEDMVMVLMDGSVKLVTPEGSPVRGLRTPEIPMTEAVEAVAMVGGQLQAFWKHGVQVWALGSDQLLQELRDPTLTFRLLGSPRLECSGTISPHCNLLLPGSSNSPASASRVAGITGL
UniProt P29597, sequence (whole entry, looked up): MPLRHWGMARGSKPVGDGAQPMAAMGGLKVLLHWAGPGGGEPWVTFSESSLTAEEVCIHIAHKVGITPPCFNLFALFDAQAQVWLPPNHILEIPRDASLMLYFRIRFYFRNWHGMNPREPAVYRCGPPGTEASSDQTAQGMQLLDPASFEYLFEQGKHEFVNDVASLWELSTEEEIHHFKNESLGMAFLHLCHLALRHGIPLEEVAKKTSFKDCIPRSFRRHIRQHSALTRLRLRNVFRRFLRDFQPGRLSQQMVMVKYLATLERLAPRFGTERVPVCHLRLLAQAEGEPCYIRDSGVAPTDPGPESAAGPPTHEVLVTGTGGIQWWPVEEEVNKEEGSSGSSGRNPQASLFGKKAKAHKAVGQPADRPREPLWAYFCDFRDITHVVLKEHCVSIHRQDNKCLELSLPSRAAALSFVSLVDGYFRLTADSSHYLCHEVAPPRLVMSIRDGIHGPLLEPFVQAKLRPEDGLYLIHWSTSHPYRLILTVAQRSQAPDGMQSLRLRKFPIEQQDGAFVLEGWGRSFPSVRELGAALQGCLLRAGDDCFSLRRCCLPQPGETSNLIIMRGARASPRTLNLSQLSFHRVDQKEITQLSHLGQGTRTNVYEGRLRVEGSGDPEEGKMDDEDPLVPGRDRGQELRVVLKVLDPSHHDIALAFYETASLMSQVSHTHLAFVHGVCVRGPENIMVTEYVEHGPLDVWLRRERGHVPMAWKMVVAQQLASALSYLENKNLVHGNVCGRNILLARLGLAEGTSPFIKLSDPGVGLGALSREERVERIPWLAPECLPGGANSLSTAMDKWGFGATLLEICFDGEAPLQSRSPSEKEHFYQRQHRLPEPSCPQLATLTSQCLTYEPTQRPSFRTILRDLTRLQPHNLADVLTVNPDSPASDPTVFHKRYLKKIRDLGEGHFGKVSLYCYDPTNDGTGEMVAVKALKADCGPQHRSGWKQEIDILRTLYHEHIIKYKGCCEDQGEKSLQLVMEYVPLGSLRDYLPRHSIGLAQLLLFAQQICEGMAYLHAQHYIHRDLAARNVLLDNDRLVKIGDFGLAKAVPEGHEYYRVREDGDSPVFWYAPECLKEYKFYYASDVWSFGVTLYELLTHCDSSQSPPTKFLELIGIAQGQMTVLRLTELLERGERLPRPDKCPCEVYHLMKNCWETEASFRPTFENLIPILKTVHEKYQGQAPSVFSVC
UniProt Q9NRM7, sequence (whole entry, looked up): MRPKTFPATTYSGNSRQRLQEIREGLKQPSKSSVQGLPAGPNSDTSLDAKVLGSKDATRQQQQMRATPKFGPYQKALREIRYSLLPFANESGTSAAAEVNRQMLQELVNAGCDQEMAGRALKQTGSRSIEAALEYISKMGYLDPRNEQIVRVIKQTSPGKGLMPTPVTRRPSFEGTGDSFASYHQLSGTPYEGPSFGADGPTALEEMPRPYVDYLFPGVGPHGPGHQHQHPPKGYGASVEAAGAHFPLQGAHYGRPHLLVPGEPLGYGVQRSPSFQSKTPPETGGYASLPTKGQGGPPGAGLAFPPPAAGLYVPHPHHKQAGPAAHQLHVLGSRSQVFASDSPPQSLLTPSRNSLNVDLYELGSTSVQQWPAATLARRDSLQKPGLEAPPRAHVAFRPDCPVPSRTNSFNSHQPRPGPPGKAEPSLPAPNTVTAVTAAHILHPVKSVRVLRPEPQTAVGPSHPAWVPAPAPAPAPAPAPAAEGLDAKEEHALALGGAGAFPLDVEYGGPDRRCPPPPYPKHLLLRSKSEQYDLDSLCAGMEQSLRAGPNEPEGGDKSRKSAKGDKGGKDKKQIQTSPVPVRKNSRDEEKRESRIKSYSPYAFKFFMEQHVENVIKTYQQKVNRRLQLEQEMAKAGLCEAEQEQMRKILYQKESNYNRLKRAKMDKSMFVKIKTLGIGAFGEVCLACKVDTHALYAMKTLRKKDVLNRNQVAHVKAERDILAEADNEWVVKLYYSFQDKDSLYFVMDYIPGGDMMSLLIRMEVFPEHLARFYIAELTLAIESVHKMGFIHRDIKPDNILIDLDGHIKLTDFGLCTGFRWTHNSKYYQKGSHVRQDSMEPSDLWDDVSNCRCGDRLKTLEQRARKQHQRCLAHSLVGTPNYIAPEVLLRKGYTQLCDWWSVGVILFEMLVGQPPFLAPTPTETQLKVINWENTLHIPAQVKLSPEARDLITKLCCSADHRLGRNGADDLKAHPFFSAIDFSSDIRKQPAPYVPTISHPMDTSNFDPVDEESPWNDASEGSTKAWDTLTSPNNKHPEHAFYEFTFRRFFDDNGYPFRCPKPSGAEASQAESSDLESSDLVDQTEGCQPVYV
UniProt Q13705, sequence (whole entry, looked up): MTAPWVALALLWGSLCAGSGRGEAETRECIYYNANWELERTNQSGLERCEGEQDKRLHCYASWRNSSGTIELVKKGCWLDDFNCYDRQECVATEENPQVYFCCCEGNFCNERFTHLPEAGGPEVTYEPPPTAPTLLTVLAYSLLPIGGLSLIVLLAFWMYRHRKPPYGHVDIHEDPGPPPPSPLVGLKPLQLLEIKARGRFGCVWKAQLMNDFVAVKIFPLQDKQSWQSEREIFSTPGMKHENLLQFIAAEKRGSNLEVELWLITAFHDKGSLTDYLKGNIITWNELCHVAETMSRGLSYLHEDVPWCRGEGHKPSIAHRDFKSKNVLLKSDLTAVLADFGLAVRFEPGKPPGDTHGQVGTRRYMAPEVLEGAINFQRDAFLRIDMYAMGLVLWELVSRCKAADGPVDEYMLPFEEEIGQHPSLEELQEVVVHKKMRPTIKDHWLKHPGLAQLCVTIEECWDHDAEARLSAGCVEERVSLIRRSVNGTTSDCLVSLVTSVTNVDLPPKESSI
UniProt P49336, sequence (whole entry, looked up): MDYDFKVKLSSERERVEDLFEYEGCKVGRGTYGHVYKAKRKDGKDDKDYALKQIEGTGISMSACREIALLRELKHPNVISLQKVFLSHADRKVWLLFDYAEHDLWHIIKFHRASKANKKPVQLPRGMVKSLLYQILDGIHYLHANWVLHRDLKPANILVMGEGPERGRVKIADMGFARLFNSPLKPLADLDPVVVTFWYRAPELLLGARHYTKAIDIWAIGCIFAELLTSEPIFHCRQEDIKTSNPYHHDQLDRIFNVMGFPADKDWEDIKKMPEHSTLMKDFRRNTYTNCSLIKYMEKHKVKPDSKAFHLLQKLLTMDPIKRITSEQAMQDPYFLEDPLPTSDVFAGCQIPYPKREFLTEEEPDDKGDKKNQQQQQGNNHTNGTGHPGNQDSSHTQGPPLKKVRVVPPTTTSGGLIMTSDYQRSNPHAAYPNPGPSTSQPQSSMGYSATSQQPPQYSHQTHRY

Block 1 — read-out: cell-free assay; method: competition with immobilised ligand; tested at: 1 µM
SMILES: COc1ccc2c(c1)O[C@@H](c1ccc(OC)c(OC)c1)C[C@H]2NC(=O)C1(c2ccc3c(c2)OC(F)(F)O3)CC1
target	remaining binding
Tyrosine-protein kinase ITK/TSK (ITK, Homo sapiens, UniProt Q08881)	86%
Activin receptor type-2B (ACVR2B, Homo sapiens, UniProt Q13705)	96%
Receptor-type tyrosine-protein kinase FLT3 (FLT3, Homo sapiens, UniProt P36888, D835V/ITD)	65%
Serine/threonine-protein kinase OSR1 (OXSR1, Homo sapiens, UniProt O95747)	90%
Serine/threonine-protein kinase RIO2 (RIOK2, Homo sapiens, UniProt Q9BVS4)	100%
Mitogen-activated protein kinase kinase kinase 12 (MAP3K12, Homo sapiens, UniProt Q12852)	80%
Serine/threonine-protein kinase LATS2 (LATS2, Homo sapiens, UniProt Q9NRM7)	100%
Non-receptor tyrosine-protein kinase TYK2, JH2 (TYK2, Homo sapiens, UniProt P29597)	91%
Cyclin-dependent kinase 8 (CDK8, Homo sapiens, UniProt P49336)	100%
Serine/threonine-protein kinase Nek10 (NEK10, Homo sapiens, UniProt Q6ZWH5)	86%
Tyrosine-protein kinase ABL1, non-phosphorylated (ABL1, Homo sapiens, UniProt P00519, F317I)	93%
Serine/threonine-protein kinase 10 (STK10, Homo sapiens, UniProt O94804)	88%
Phosphatidylinositol 5-phosphate 4-kinase type-2 gamma (PIP4K2C, Homo sapiens, UniProt Q8TBX8)	83%
Mitogen-activated protein kinase kinase kinase kinase 1 (MAP4K1, Homo sapiens, UniProt Q92918)	90%
Serine/threonine-protein kinase PAK 5 (PAK5, Homo sapiens, UniProt Q9P286)	75%

Block 2 — organism: Sarcocystis neurona; read-out: parasite growth; tested at: concentration not given; setting: first screen; relative to: untreated
Structure (SMILES)	log2 fold change
Cc1cccc(CCN2CCC(C(=O)c3ccc(NS(C)(=O)=O)cc3)CC2)n1.Cl.Cl	-0.2
Cl.O.O=C1N(c2ccccc2)c2ccccc2C1(Cc1ccncc1)Cc1ccncc1	0.09
CC(Cc1ccccc1)(NC(=O)CN)c1ccccc1.Cl (stereo not drawn)	0.15

Block 3 — cell line: mouse MPNST tumor cells; method: high-content immunofluorescence imaging; refers to: nuclear SOX9; tested at: 10 µM; time: 12 h; setting: mean of 2 replicates; relative to: DMSO control; reading: higher = more nuclear SOX9
Compound	nuclear SOX9 intensity
CC1=C(C(=O)Nc2cc3cn[nH]c3cc2F)C(c2ccc(C(F)(F)F)cc2)CC(=O)N1 (stereo not drawn)	78.5 % of DMSO
COc1c(Cl)cc2c([nH]c3cnccc32)c1NC(=O)c1cccnc1C	95.3 % of DMSO
CC(C)c1c(C(=O)Nc2ccccc2)c(-c2ccccc2)c(-c2ccc(F)cc2)n1CC[C@@H](O)C[C@@H](O)CC(=O)O	103 % of DMSO and 97.7 % of DMSO

Block 4 — species: human; sample: microsomes or S9; tested at: 2 µM; time: 0.5 h
Structure (SMILES)	remaining compound
O=S(=O)(NCCNCC1(O)CNCCOC1)c1ccc(Cl)cc1 (stereo not drawn)	94.3%
COc1ccc(Nc2nnc(-c3ccc(C)c(S(=O)(=O)NCc4ccccn4)c3)c3ccccc23)cc1C(N)=O	1.79%
Cn1nccc1-c1cccc(-c2ccc(=O)n(C)n2)c1	96.8%

Block 5 — organism: Cryptosporidium parvum; method: time-kill; cell line: HCT-8; strain: nanoluciferase-expressing; relative to: DMSO control
SMILES: CN(C(=O)c1ccn2ncc(-c3ccc(C(N)=O)cc3)c2c1)c1ccc(C#N)cn1
conditions	luminescence remaining
0.02743 µM, 4 h	83.8% and 87.8%
0.2469 µM, 48 h	10.4% and 11.3%
0.00914 µM, 0 h	91.4% and 98% and 90.3% and 103% and 90.1% and 97.4% and 91.2% and 99.4%

Single results of other studies
Structure (SMILES)	target or system	test	system	conditions	how to read	endpoint	value
CC(C)n1cnc(-c2ccc(F)cc2)c1-c1ncc(C(=O)Nc2ccc(N3CCN(C)CC3)cc2)[nH]1	–	–	human, idiopathic pulmonary fibrosis	30 mg once daily, trial, treatment-emergent	–	patients with decreased appetite	0%
COc1ccc2[nH]c3c4[nH]c5ccc(OC)cc5c4c4c(c3c2c1)C(=O)NC4=O	Casein kinase II subunit alpha' (CSNK2A2, Homo sapiens, UniProt P19784)	binding	–	1 µM	–	remaining binding	56%
O=C(COc1ccc(Cl)cc1)NC1CCC(NC(=O)COc2ccc(Cl)cc2)CC1 (stereo not drawn)	HEK293T ATF4-firefly luciferase reporter	integrated stress response, refers to: ATF4	–	concentration not given	relative to: DMSO	reporter signal	84.3% and 68.3% and 60.8% and 71.2% and 72.7% and 72.6% and 65.6% and 76.4%

Excerpt of the above (block 1):
target	remaining binding
Non-receptor tyrosine-protein kinase TYK2, JH2 (TYK2, Homo sapiens, UniProt P29597)	91%
Serine/threonine-protein kinase Nek10 (NEK10, Homo sapiens, UniProt Q6ZWH5)	86%
Serine/threonine-protein kinase RIO2 (RIOK2, Homo sapiens, UniProt Q9BVS4)	100%
Mitogen-activated protein kinase kinase kinase kinase 1 (MAP4K1, Homo sapiens, UniProt Q92918)	90%
Serine/threonine-protein kinase PAK 5 (PAK5, Homo sapiens, UniProt Q9P286)	75%
